{"data": "Published values of several laboratories", "note": "“And” joins repeats or separate records; there may be more than shown. Numbers after ± are the reported error.", "chain of UniProt Q9R0P3 (whole entry, looked up)": "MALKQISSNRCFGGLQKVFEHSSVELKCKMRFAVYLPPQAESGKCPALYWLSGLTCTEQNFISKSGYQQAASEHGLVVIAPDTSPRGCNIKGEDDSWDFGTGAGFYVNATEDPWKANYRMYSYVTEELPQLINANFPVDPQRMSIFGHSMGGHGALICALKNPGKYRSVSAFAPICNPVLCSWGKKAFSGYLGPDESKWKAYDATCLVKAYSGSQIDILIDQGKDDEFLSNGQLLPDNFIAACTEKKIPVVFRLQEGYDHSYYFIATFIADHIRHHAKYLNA", "chain of UniProt Q007T0 (whole entry, looked up)": "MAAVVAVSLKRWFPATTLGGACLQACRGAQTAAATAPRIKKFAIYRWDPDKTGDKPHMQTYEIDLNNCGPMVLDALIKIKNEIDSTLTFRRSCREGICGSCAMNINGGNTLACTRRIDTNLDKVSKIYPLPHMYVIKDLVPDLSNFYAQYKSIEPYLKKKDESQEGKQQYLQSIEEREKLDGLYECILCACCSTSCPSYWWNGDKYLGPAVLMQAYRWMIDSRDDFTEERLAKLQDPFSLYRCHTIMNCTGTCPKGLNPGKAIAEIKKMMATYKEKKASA", "chain of UniProt A5GZW8 (whole entry, looked up)": "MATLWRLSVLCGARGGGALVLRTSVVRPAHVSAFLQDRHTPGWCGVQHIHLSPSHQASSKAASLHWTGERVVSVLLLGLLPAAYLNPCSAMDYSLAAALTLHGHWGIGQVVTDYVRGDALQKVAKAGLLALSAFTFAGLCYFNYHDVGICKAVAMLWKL", "chain of UniProt D0VWV4 (whole entry, looked up)": "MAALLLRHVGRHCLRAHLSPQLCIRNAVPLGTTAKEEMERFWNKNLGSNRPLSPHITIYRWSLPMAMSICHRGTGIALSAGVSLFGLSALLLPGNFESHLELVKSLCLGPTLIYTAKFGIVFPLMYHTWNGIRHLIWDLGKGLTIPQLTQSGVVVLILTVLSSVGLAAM", "chain of UniProt P43681 (whole entry, looked up)": "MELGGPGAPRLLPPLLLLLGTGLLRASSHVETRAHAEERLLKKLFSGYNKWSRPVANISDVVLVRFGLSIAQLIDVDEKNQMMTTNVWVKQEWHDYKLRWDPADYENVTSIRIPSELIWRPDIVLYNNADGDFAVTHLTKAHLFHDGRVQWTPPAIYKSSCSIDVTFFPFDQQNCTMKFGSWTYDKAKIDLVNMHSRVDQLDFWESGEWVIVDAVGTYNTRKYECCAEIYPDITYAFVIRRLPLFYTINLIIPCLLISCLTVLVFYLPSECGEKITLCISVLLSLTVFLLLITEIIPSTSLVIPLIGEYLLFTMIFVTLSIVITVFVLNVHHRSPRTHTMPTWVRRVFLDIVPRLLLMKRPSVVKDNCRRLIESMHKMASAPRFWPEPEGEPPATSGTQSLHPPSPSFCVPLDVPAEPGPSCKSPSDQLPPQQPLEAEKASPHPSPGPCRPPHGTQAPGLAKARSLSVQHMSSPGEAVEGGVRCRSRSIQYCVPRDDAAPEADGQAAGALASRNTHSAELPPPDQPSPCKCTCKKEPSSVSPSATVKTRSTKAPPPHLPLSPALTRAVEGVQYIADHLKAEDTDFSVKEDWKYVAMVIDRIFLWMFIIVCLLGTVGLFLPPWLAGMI", "chain of UniProt Q16584 (whole entry, looked up)": "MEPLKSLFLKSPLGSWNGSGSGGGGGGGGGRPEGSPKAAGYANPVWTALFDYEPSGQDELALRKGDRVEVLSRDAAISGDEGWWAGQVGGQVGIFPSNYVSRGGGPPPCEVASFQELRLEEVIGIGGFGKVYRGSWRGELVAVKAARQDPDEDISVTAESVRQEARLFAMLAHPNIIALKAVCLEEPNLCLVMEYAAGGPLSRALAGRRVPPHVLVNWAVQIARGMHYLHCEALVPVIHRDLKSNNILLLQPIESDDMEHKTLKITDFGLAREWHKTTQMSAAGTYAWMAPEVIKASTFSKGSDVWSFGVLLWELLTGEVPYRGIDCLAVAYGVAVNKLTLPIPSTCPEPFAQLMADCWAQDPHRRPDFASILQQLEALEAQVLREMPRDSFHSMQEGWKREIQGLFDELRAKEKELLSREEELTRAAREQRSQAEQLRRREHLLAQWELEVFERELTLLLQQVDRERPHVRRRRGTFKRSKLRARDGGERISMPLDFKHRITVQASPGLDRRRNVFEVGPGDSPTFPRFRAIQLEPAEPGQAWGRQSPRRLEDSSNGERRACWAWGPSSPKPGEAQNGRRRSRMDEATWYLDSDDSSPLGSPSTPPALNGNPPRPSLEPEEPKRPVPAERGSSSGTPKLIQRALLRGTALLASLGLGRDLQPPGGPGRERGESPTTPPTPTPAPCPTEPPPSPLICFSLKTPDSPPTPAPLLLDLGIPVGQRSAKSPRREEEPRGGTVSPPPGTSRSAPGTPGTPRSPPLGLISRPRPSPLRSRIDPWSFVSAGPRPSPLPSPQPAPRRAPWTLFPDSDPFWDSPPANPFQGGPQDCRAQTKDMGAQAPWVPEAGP", "chain of UniProt P0A988 (whole entry, unmodified, looked up)": "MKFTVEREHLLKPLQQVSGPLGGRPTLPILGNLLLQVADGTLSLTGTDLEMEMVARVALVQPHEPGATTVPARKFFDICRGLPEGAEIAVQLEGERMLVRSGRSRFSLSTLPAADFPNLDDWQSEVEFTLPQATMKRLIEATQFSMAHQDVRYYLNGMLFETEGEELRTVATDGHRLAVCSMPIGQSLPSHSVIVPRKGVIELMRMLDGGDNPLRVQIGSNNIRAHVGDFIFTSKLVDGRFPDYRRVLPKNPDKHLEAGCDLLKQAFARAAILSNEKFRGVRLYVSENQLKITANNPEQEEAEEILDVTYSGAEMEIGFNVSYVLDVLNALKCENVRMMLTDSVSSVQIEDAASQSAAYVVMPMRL", "chain of UniProt Q9UM73 (whole entry, unmodified, looked up)": "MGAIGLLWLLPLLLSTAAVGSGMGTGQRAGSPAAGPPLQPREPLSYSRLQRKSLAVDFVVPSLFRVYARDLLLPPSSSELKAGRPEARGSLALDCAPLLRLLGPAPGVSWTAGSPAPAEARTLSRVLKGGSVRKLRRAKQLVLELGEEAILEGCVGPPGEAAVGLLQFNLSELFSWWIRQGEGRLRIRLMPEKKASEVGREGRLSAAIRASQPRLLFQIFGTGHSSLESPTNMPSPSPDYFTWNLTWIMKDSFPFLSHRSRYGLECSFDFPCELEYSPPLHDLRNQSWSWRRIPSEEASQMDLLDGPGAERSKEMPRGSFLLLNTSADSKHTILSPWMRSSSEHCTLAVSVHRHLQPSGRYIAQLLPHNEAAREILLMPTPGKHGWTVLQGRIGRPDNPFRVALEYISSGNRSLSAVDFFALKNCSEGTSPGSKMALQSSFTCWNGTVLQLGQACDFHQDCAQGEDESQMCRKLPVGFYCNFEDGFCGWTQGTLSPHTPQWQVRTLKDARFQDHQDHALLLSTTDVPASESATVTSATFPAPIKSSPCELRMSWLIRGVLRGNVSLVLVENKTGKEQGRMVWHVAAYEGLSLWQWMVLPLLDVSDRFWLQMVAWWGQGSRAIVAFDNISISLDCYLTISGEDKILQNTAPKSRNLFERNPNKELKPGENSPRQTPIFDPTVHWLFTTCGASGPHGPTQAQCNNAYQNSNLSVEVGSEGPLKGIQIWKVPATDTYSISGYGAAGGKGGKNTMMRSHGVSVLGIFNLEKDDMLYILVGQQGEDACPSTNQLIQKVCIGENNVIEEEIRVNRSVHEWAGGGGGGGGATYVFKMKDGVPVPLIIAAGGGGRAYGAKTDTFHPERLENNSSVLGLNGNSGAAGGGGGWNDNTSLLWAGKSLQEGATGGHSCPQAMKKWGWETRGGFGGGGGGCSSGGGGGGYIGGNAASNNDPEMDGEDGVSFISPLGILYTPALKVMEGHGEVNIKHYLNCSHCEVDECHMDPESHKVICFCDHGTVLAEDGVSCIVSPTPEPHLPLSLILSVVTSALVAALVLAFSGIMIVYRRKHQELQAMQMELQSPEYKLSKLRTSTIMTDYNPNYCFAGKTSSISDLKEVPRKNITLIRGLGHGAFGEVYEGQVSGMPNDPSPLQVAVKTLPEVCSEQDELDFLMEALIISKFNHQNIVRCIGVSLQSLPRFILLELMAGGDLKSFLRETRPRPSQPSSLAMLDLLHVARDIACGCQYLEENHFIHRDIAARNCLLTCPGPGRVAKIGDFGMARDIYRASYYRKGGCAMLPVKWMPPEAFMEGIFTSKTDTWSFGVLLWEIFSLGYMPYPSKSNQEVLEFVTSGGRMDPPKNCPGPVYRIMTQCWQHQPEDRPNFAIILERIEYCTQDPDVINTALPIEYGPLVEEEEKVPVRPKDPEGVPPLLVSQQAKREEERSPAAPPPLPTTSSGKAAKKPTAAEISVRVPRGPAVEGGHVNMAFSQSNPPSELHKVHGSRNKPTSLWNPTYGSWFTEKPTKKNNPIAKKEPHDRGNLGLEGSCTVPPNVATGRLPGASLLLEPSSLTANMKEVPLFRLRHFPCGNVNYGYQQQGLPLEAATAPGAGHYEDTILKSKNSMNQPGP", "chain of UniProt P33533 (whole entry, looked up)": "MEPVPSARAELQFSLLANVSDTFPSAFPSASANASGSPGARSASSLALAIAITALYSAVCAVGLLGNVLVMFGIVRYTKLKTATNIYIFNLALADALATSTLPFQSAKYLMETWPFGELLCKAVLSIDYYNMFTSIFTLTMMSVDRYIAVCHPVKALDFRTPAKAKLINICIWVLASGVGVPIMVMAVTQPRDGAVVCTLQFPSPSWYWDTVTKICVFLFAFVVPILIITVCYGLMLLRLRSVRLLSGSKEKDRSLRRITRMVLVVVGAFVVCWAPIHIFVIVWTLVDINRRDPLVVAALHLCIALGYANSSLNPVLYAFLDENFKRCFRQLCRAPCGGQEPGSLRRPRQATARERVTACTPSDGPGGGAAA", "chain of UniProt O95832 (whole entry, looked up)": "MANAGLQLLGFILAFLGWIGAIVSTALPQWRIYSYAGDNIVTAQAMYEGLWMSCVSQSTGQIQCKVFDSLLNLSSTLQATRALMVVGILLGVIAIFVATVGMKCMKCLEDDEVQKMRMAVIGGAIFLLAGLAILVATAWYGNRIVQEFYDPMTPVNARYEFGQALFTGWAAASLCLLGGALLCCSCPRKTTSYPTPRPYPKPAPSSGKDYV"}
{"SMILES": "CC(C)[C@H]1NC(=O)C[C@H]2/C=C/CCSSC[C@@H](NC1=O)C(=O)N[C@H](Cc1cccc3ccccc13)C(=O)NCC(=O)O2", "target or system": "ALK (Homo sapiens, UniProt Q9UM73, L1196M)", "assay": "enzyme activity, inhibitor", "conditions": "10 µM", "measurement": "inhibition", "value": "5%"}
{"SMILES": "CN(C)[C@H]1C[C@@]23CC[C@@]4(O2)C(=CC[C@]2(C)[C@@H](c5ccc6ccncc6c5)CC[C@H]24)C=C3[C@@H](O)[C@@H]1O", "target or system": "MAP3K11 (Homo sapiens, UniProt Q16584)", "assay": "ATP probe labelling, inhibitor, KiNativ profiling", "conditions": "1 µM", "measurement": "inhibition", "value": "-12.8%"}
{"SMILES": "C/C(=N\\OCCCN1CCCCC1)c1ccc(C(F)(F)F)cc1", "target or system": "Neuronal acetylcholine receptor; alpha4/beta2 (Homo sapiens, UniProt P17787+P43681)", "assay": "calcium influx, agonist, FLIPR", "conditions": "10 µM", "measurement": "activation", "value": "0.69%"}
{"SMILES": "O=C1NC2(CC2)COc2ncc(F)cc2[C@H]2COCCN2c2ccn3ncc1c3n2", "system": "Sprague-Dawley rat, female, serum", "conditions": "oral, 5 mg/kg/day, 4 weeks daily, end of treatment", "measurement": "pancreatic amylase activity", "value": "1690 ± 274 U/L"}
{"SMILES": "CC(C)(C)C(=O)OCOP(=O)(OCOC(=O)C(C)(C)C)C1CCCN(O)C1=O (stereo not drawn)", "target or system": "IGROV-1", "measurement": "GI50", "value": "393 nM"}
{"SMILES": "CC(C)CC(O)(CC(C)C)c1cn(C(=O)N2CCCC2)nn1", "target or system": "S-formylglutathione hydrolase (Esd, Mus musculus, UniProt Q9R0P3)", "assay": "probe labelling, inhibitor, competitive ABPP-SILAC, measured: Esd", "system": "mouse T cells", "conditions": "concentration not given, 4 h, in situ, single peptide", "how to read": "baseline: treated over DMSO, lower = more inhibition", "measurement": "SILAC ratio", "value": "1.28 and 0.98 and 0.89 and 1.18 and 0.94 and 0.85 and 0.74"}
{"SMILES": "CC[C@H](C)[C@H](NC(=O)[C@H](CCCNC(=N)N)NC(=O)[C@H](CCCNC(=N)N)NC(=O)[C@H](CC(C)C)NC(=O)[C@H](Cc1ccccc1)NC(=O)CNC(=O)CNC(=O)[C@@H](N)Cc1ccc(O)cc1)C(=O)N[C@@H](CCCNC(=N)N)C(=O)N1CCC[C@H]1C(=O)N[C@@H](CCCCN)C(=O)N[C@@H](CC(C)C)C(=O)N[C@@H](CCCCN)C(=O)O", "target or system": "GPR139 (Homo sapiens, UniProt Q6DWJ6)", "assay": "G11 activation, agonist, BRET", "conditions": "40 µM", "how to read": "baseline: GoA response", "measurement": "maximal G protein activation", "value": "~62%"}
{"SMILES": "C#CCCCCOc1ccc2c(c1)CCCN2C(=O)CCl", "target or system": "Claudin-1 (CLDN1, Homo sapiens, UniProt O95832)", "assay": "mass spectrometry profiling, measured: CLDN1", "system": "H460 cell lysate", "conditions": "100 µM over 10 µM, UniProt O95832", "how to read": "baseline: high over low concentration", "measurement": "reactivity ratio", "value": 1.42}
{"SMILES": "CCN1CCN(Cc2ccc(C(=O)Nc3ccc(C)c(NCc4cnc5[nH]ccc5c4OC)c3)cc2C(F)(F)F)CC1", "target or system": "PRPF4B (Homo sapiens, UniProt Q13523)", "assay": "binding, competition with immobilised ligand", "conditions": "1 µM", "measurement": "remaining binding", "value": "87%"}
{"SMILES": "CCCCC1CNCCN1CC1CCCN1CC(Cc1ccc2ccccc2c1)N1CCN(CCCC2CCCC2)C(C(C)O)C1 (stereo not drawn)", "target or system": "Oprd1 (Rattus norvegicus, UniProt P33533)", "assay": "radioligand binding", "system": "rat brain membranes", "conditions": "500 nM, pH 7.5, 25 °C, together with: 2 nM [3H]DPDPE", "measurement": "remaining binding", "value": "81.3%"}
{"SMILES": "CS(C)(=O)=Nc1ccc(-c2ccc(-c3nc4cc(O[C@@H]5CO[C@H]6[C@@H]5OC[C@H]6O)[nH]c4cc3F)cc2)cc1", "target or system": "GALR1 (Homo sapiens, UniProt P47211)", "assay": "ligand displacement, radioligand", "conditions": "10 µM", "measurement": "inhibition", "value": "-10%"}
{"SMILES": "O=C1NC(=O)c2c1c1cc(F)c[n+]3c1c1c2c2cc(O)ccc2[n]1[Ru-4]312([N]=C=S)[S+]3CC[S+]1CC[S+]2CC3 (stereo not drawn)", "target or system": "LYN (Homo sapiens, UniProt P07948)", "assay": "enzyme activity", "conditions": "100 nM, human enzyme, together with: 10 µM ATP", "how to read": "baseline: untreated", "measurement": "remaining activity", "value": "7%"}
{"SMILES": "COc1ccccc1-c1n[nH]c2nc(NC3CCN(C(=O)Cc4ccc(F)cc4F)CC3)ncc12", "assay": "bead binding, competition bead pull-down, measured: LINJ.21.0300", "system": "Leishmania donovani axenic amastigote extract", "conditions": "10 µM", "how to read": "baseline: vehicle", "measurement": "relative abundance", "value": 1.31}
{"SMILES": "C=CC(=O)NC[C@H](NC(=O)[C@H](CC1CCCCC1)NC(=O)[C@H](CCC(N)=O)NC(C)=O)C(=O)N[C@@H](CC(C)C)C(=O)N[C@@H](Cc1ccccc1)C(=O)O", "target or system": "Beta sliding clamp (Escherichia coli, UniProt P0A988)", "assay": "binding, isothermal titration calorimetry", "conditions": "25 °C", "measurement": "ΔG", "value": "-9.2 kcal/mol"}
{"SMILES": "CON(C(=O)c1cn(C)nc1C(F)F)C(C)Cc1c(Cl)cc(Cl)cc1Cl (stereo not drawn)", "target or system": "SDHD/SDHC/SDHB (Sus scrofa, UniProt A5GZW8+D0VWV4+Q007T0)", "assay": "enzyme activity, inhibitor, DCIP reduction", "system": "pig", "conditions": "0.3 µM, together with: DCIP 40 µM", "measurement": "reaction velocity", "value": "0.00731 µM/s and 0.00697 µM/s and 0.00634 µM/s"}
